Experimental data collected from several papers.
Lines come from different studies, so protocols differ. “And” joins repeats or separate records; there may be more than shown. Numbers after ± are the reported error.
USP5: Ubiquitin carboxyl-terminal hydrolase 5 (USP5, Homo sapiens, UniProt P45974)
CASP4: Caspase-4 (CASP4, Homo sapiens, UniProt P49662)
Lysophospholipase-like protein 1: Lysophospholipase-like protein 1 (Mus musculus, UniProt Q3UFF7)

SMILES	target	test	test system	conditions	scale	endpoint	value
NC(=S)N/N=C1\C(=O)Nc2ccccc21	USP5	enzyme activity, inhibitor	–	17 µM	–	inhibition	7%
CC(=O)N[C@@H](CC(C)C)C(=O)N[C@@H](CCC(N)=O)C(=O)N[C@@H](CCC(=O)O)C(=O)N[C@@H](CC(=O)O)C(=O)COC(=O)c1c(C)cccc1C	CASP4	enzyme activity, inhibitor	–	–	–	kinact/KI	38600 M⁻¹ s⁻¹
NS(=O)(=O)c1ccc(CCN2C(=O)c3ccc(N4CCOCC4)cc3C2=O)cc1	CA2 (Homo sapiens, UniProt P00918)	binding	–	–	–	emission maximum	561 nm
CN(C)CCCSC(=S)N1CCN(C(=O)/C=C/c2coc3ccccc3c2=O)CC1	Nucleoprotein (N, Tomato spotted wilt virus, UniProt P25999)	binding, microscale thermophoresis	–	1.953 µM	dose series	normalised MST response	-0.00196
O=C1N/C(=N\c2ccc(F)cc2C(=O)O)S/C1=C\c1cccc2ccccc12	DHODH (Homo sapiens, UniProt Q02127)	enzyme activity, inhibitor, DCIP reduction	–	0.1 µM	higher = more activity	reaction rate	-21.9 a.u.
Nc1ccc(N2CCOCC2)c(N)c1	USP5	enzyme activity, inhibitor	–	17 µM	–	inhibition	90%
CC[C@H](C)[C@@H]1NC(=O)[C@H](Cc2ccccc2)NC(=O)[C@H](CCC(=O)O)NC(=O)[C@H](CCCNC(=N)N)NC(=O)CNC(=O)[C@@H](NC(=O)[C@H](CC(C)C)NC(=O)[C@H](CCCNC(=N)N)NC(=O)[C@@H](NC(=O)CNC(=O)[C@H](Cc2ccc(O)cc2)NC(=O)[C@@H]2CCCN2C(=O)[C@H](C)NC(=O)[C@H](C)NC(=O)[C@@H](N)CCCNC(=N)N)C(C)C)CSSC[C@@H]2NC(=O)[C@@H](NC(=O)[C@H](CO)NC(=O)[C@H](CO)NC(=O)[C@H](CO)NC(=O)[C@H](CC(C)C)NC(=O)CNC(=O)[C@H](C)NC(=O)[C@H](CC(C)C)NC(=O)[C@@H](NC(=O)[C@@H](N)CC(=O)O)C(C)C)CSSC[C@H](NC(=O)CNC(=O)[C@H](Cc3c[nH]c4ccccc34)NC(=O)[C@H](CCCCN)NC2=O)C(=O)N[C@@H](CO)C(=O)N[C@@H](CCCCN)C(=O)N[C@@H](CO)C(=O)N[C@@H](CCC(=O)O)C(=O)N[C@@H]([C@@H](C)CC)C(=O)N[C@@H](CO)C(=O)N[C@@H](CO)C(=O)N[C@@H](CC(C)C)C(=O)N[C@H](C(=O)O)CSSC[C@@H](C(=O)NCC(=O)NCC(=O)N[C@@H](CO)C(=O)N[C@@H](CCCNC(=N)N)C(=O)N[C@@H](Cc2c[nH]c3ccccc23)C(=O)O)NC(=O)[C@H]([C@@H](C)O)NC(=O)[C@H](Cc2ccccc2)NC(=O)[C@H]([C@@H](C)CC)NC(=O)[C@H](C(C)C)NC(=O)[C@H](C)NC(=O)[C@H](CCCNC(=N)N)NC1=O	RXFP4 (Homo sapiens, UniProt Q8TDU9, T121A)	–	–	T121A mutant	reference: wild type	ΔpEC50	inactive
CC(=O)N[C@@H](CCCNC(=N)N)C(=O)N[C@H](C(=O)N[C@@H](CCCCN)C(=O)N[C@@H](CO)C(=O)N[C@@H](CCCNC(=N)N)C(=O)N[C@H](C(=O)N[C@@H](Cc1c[nH]c2ccccc12)C(=O)N[C@@H](C)C(=O)N1Cc2ccccc2C[C@H]1C(N)=O)[C@@H](C)OP(=O)(O)O)[C@@H](C)O	14-3-3 protein epsilon (Homo sapiens, UniProt P62258)	thermal stability, DSF	–	30 µM, pH 7.4	–	ΔTm	4.43 °C
Fc1ccc(Nc2nc(NC3CCCCC3)c3cc(Br)ccc3n2)cc1F	ADRB2 (Homo sapiens, UniProt P07550, C125V)	β-arrestin2 recruitment, antagonist, BRET	–	mutant C125V	reference: isoprenaline maximal response	maximal inhibition	23.1%
CCN(CC)C(=O)c1ccc(O)c(OC)c1	Heat shock protein HSP 90-alpha, N-terminal domain (HSP90AA1, Homo sapiens, UniProt P07900)	binding, ligand-observed NMR titration	–	9.96 µM, ligand to protein ratio 125	–	bound ligand fraction	0.49
CCCCCC=CC=C1C(=O)C=CC1CC=CCCCC(=O)O (centres unmarked)	Pseudouridylate synthase RPUSD2 (RPUSD2, Homo sapiens, UniProt Q8IZ73)	competitive isoTOP-ABPP	Ramos soluble proteome	100 µM, 60 min, with: iodoacetamide probe	reference: DMSO over compound-treated, higher = stronger cysteine blockade	isoTOP-ABPP competition ratio	9.1
CCN(CC)C(CO)c1cccc2c(C)c(C)oc12 (centres unmarked)	LPAR1 (Homo sapiens, UniProt Q92633, W210A)	G-protein dissociation, agonist, NanoBiT	HEK-293T	10 nM, W210A mutant	reference: baseline luminescence	fold change	0.781 and 0.993 and 0.911 and 0.98 and 0.919
C=CC(=O)N1CCCC(n2c(=O)c3ncccc3n(Cc3ccc(Oc4ccccc4)cc3)c2=O)C1 (centres unmarked)	Putative protein-lysine deacylase ABHD14B (Homo sapiens, UniProt Q96IU4)	thermal proteome profiling	–	unit not given	reference: untreated control	melting temperature shift	-2.7
CC[C@H](C)[C@H](NC(=O)[C@H](Cc1ccccc1)NC(=O)[C@H](CCC(=O)O)NC(=O)[C@H](CCCCN)NC(=O)[C@H](C)NC(=O)[C@H](C)NC(=O)[C@H](CCC(N)=O)NC(=O)CNC(=O)[C@H](CCC(=O)O)NC(=O)[C@H](CC(C)C)NC(=O)[C@H](Cc1ccc(O)cc1)NC(=O)[C@H]1CCC[C@@H]1NC(=O)[C@H](CO)NC(=O)C(C)(C)NC(=O)[C@H](CC(=O)O)NC(=O)[C@H](CO)NC(=O)[C@@H](NC(=O)[C@H](Cc1ccccc1)NC(=O)[C@@H](NC(=O)CNC(=O)[C@H](CCC(=O)O)NC(=O)C(C)(C)NC(=O)[C@@H](N)Cc1c[nH]cn1)[C@@H](C)O)[C@@H](C)O)C(=O)N[C@@H](C)C(=O)N[C@@H](Cc1c[nH]c2ccccc12)C(=O)N[C@@H](CC(C)C)C(=O)N[C@H](C(=O)N[C@@H](CCCCN)C(=O)NCC(=O)N[C@@H](CCCNC(=N)N)C(N)=O)C(C)C	GLP1R (Homo sapiens, UniProt P43220)	β-arrestin-1 recruitment, agonist, BRET	–	–	reference: GLP-1	efficacy	29 ± 4%
N[C@H]1CC[C@H](Nc2nccc(-c3cccnc3Oc3ccc(NC(=O)NC4CC4)c4ccccc34)n2)CC1	Phosphoglycerate mutase 1 (Homo sapiens, UniProt P18669)	kinobead competition pulldown, measured: PGAM1	HEK293/HCT116 lysate mixture	10 µM, 1 h, 4 °C	lower = stronger competition	log2 LFQ intensity	22.7 and 22.6 and 23.1 and 23.5
CC(C)[C@@H]1NC(=O)[C@H](Cc2ccccc2)NC(=O)CSC[C@@H](C(N)=O)NC(=O)[C@H](CCC(=O)O)NC(=O)[C@H](CO)NC(=O)[C@H](Cc2c[nH]c3cccc(Cl)c23)NC(=O)[C@H](C2CCCCC2)NC(=O)[C@H](C(C)C)NC(=O)[C@H](Cc2ccc(O)cc2)NC(=O)[C@H](CC(=O)O)NC(=O)[C@H](Cc2c[nH]c3ccccc23)NC(=O)[C@H](Cc2ccc(N)nc2)NC(=O)[C@H](Cc2c[nH]c3ccc(Cl)cc23)NC(=O)[C@H](CCC(=O)O)NC1=O	Interleukin-1 receptor-like 2 (IL1RL2, Homo sapiens, UniProt Q9HB29)	reporter gene (SEAP), inhibitor, HEK-Blue IL-36R reporter	HEK-Blue IL-36R cells	0.005 µM, 6 h, with: IL-36β 10 ng/mL	–	remaining activity	88.3%
CN(Cc1cc(C2CC2)on1)C(=O)c1cccc(-c2ccc3c(c2)CCO3)c1	ACSS2 (Homo sapiens, UniProt Q9NR19)	enzyme activity, inhibitor, coupled pyrophosphate	–	100 µM	higher is more activity	reaction rate	0.00321 a.u.
CC(=O)N[C@@H](CO)C(=O)N[C@H](C(=O)N1CCC[C@H]1C(=O)N[C@@H](CC(=O)O)C(=O)COC(=O)c1c(C)cccc1C)C(C)(C)C	CASP4	enzyme activity, inhibitor	–	–	–	kinact/KI	18400 M⁻¹ s⁻¹
CC(C)C[C@H](NC(=O)[C@@H](NC(=O)[C@H](Cc1ccccc1)NC(=O)c1ccc(C(C)(C)C)cc1)C1CCC1)C(=O)N[C@@H](CCCCN(C)C1CC2CCC1C2)C(=O)N[C@@H](CO)C(N)=O (some centres unmarked)	Chromobox protein homolog 8 (Homo sapiens, UniProt Q9HC52)	TR-FRET displacement	–	–	reference: IC50 CBX7 over IC50 CBX8	selectivity ratio	69
Nc1nc(SCc2ccc(Cl)cc2)nn1S(=O)(=O)C1CCCCC1	Lysophospholipase-like protein 1	enzyme activity, activator, gel-based ABPP	purified protein	concentration not given, with: FP-rhodamine	reference: DMSO	probe labeling increase	2 fold
CC(=O)N[C@@H](Cc1ccc(O)cc1)C(=O)N[C@@H](CCCCN)C(=O)N[C@@H](C)C(=O)N[C@@H](CC(=O)O)C(=O)COC(=O)c1c(C)cccc1C	CASP4	enzyme activity, inhibitor	–	–	–	kinact/KI	14200 M⁻¹ s⁻¹
Cc1nc2ccc(S(=O)(=O)n3nc(SCc4ccc(Cl)cc4)nc3N)cc2s1	Lysophospholipase-like protein 1	enzyme activity, activator, gel-based ABPP	purified protein	concentration not given, with: FP-rhodamine	reference: DMSO	probe labeling increase	2.8 fold
CC(C)Oc1cc(Cl)ccc1CNc1cc(-c2ccccc2)nc2ncnn12	GPR3 (Homo sapiens, UniProt P46089, L136A)	cAMP level, cAMP GloSensor	–	30 µM	higher = more cAMP	cAMP luminescence	17900 a.u. and 13000 a.u. and 17600 a.u. and 24200 a.u.

Repeated from above:
SMILES	target	test	test system	conditions	scale	endpoint	value
NS(=O)(=O)c1ccc(CCN2C(=O)c3ccc(N4CCOCC4)cc3C2=O)cc1	CA2 (Homo sapiens, UniProt P00918)	binding	–	–	–	emission maximum	561 nm
CN(C)CCCSC(=S)N1CCN(C(=O)/C=C/c2coc3ccccc3c2=O)CC1	Nucleoprotein (N, Tomato spotted wilt virus, UniProt P25999)	binding, microscale thermophoresis	–	1.953 µM	dose series	normalised MST response	-0.00196
O=C1N/C(=N\c2ccc(F)cc2C(=O)O)S/C1=C\c1cccc2ccccc12	DHODH (Homo sapiens, UniProt Q02127)	enzyme activity, inhibitor, DCIP reduction	–	0.1 µM	higher = more activity	reaction rate	-21.9 a.u.
